Experimental data pooled from the literature.
Numbers after ± are the reported error.

Structure (SMILES) | test | system | setting | Tmax [h]
CO[C@H]1CC[C@H](N2C(=O)CNc3ncc(-c4ccc(C(C)(C)O)nc4)nc32)CC1 | – | patients, plasma | oral, 30 mg, day 15, median | 1.28
C[C@@](Cc1ccc(O)c(O)c1)(NN)C(=O)O | – | Parkinson's disease patients, plasma | oral, low levodopa Cmax subgroup (<9 µmol/L), median | 2
Cc1nn(C)cc1S(=O)(=O)NC(=O)c1ccc(-n2ccc(OCC(C)(C)C(F)(F)F)n2)nc1N1C[C@@H](C)CC1(C)C | – | human, plasma | oral, standard ETI dose | 2
COc1nnc2ccc(N3CCC(c4ccc(OCCN5CCN(C)C(=O)[C@H]5C)cc4)CC3)nn12 | – | patients, plasma | oral, 20 mg twice daily, single dose, monotherapy, median | 1.02
C=CC(=O)NC1CCN(c2ncc3ncnc(Nc4ccc(Oc5ccc6c(c5)ncn6C)c(C)c4)c3n2)CC1 | – | healthy men | oral, 60 mg single dose, added: carbamazepine | 1.5
C[C@H]1CN(C(=O)CC#N)[C@]12CCN(c1ncnc3[nH]ccc13)C2 | – | healthy adults, plasma | oral, 12 mg single dose, mean | 1.1
CCCCC1=NC2(CCCC2)C(=O)N1Cc1ccc(-c2ccccc2S(=O)(=O)Nc2noc(C)c2C)c(COCC)c1 | – | healthy adult volunteers, plasma | oral, 50 mg, 14 days repeated dosing, fasted, crushed tablet | 2.02
CC(F)(F)c1nc2nc(CO)cc(Nc3ccc(S(F)(F)(F)(F)F)cc3)n2n1 | LC-MS/MS, non-compartmental | malaria patients | 400 mg of parent drug, median | 113
CS(=O)(=O)c1ccc([C@@H](O)[C@@H](CF)NC(=O)C(Cl)Cl)cc1 | – | chicken (Arbor Acres), plasma | oral, 20 mg/kg, added: saline pretreatment | 0.8 ± 0.11
CC(=O)Nc1ccc(C[C@H](NC(=O)[C@H](CO)NC(=O)[C@@H](Cc2cccnc2)NC(=O)[C@@H](Cc2ccc(Cl)cc2)NC(=O)[C@@H](Cc2ccc3ccccc3c2)NC(C)=O)C(=O)N[C@H](Cc2ccc(NC(C)=O)cc2)C(=O)N[C@@H](CC(C)C)C(=O)N[C@@H](CCCCNC(C)C)C(=O)N2CCC[C@H]2C(=O)N[C@H](C)C(N)=O)cc1 | – | healthy men, fasted, serum | oral, 40 mg single dose | 2.3 ± 1.1
CCc1nc(C(N)=O)c(Nc2ccc(N3CCC(N4CCN(C)CC4)CC3)c(OC)c2)nc1NC1CCOCC1 | – | Japanese patients, plasma | oral, 80 mg, cycle 1 day 28, multiple doses, median | 6.08
N#Cc1cccc(-c2ccc3ncc(-c4cc(F)cc(F)c4)c(N4CCC(N)CC4)c3c2)c1O | refers to: parent compound | healthy male, plasma | oral, 20 mg, median | 1
CC[C@H](C)CCCCC(=O)N[C@@H](CCN)C(=O)N[C@H](C(=O)N[C@@H](CCN)C(=O)N[C@H]1CCNC(=O)[C@H]([C@@H](C)O)NC(=O)[C@H](CCN)NC(=O)[C@H](CCN)NC(=O)[C@H](CC(C)C)NC(=O)[C@@H](Cc2ccccc2)NC(=O)[C@H](CCN)NC1=O)[C@@H](C)O | – | mild renal insufficiency patients, plasma | IV infusion, 0.75 mg/kg, 1 h infusion, median | 1
CN(CCC(=O)O)C(=O)c1ccc2c(c1)CC[C@@H]1[C@@H]2CC[C@]2(C)C(c3cncc(F)c3)=CC[C@@H]12 | – | postmenopausal women, plasma | 3 mg once daily multiple dose, day 14, median | 1.5
CCNC(=O)[C@@H]1CCCN1C(=O)[C@H](CCCNC(=N)N)NC(=O)[C@H](CC(C)C)NC(=O)[C@@H](CC(C)C)NC(=O)[C@H](Cc1ccc(O)cc1)NC(=O)[C@H](CO)NC(=O)[C@H](Cc1c[nH]c2ccccc12)NC(=O)[C@H](Cc1c[nH]cn1)NC(=O)[C@@H]1CCC(=O)N1 | – | healthy female volunteers | oral, 1 mg single dose, enteric-coated permeation-enhanced formulation | 2.24 ± 0.38
CCCCC[C@H](O)CC[C@@H]1[C@H]2Cc3cccc(OCC(=O)O)c3C[C@H]2C[C@H]1O | LC-MS/MS | Japanese PAH patients, plasma | inhaled, 54 µg, body weight under 56.7 kg, mean | 0.15

A few entries again:
Structure (SMILES) | test | system | setting | Tmax [h]
CC(=O)Nc1ccc(C[C@H](NC(=O)[C@H](CO)NC(=O)[C@@H](Cc2cccnc2)NC(=O)[C@@H](Cc2ccc(Cl)cc2)NC(=O)[C@@H](Cc2ccc3ccccc3c2)NC(C)=O)C(=O)N[C@H](Cc2ccc(NC(C)=O)cc2)C(=O)N[C@@H](CC(C)C)C(=O)N[C@@H](CCCCNC(C)C)C(=O)N2CCC[C@H]2C(=O)N[C@H](C)C(N)=O)cc1 | – | healthy men, fasted, serum | oral, 40 mg single dose | 2.3 ± 1.1
